Results pooled from the literature.
Lines come from different studies, so protocols differ. “And” joins repeats or separate records; there may be more than shown. Numbers after ± are the reported error.
PKN1: Serine/threonine-protein kinase N1 (PKN1, Homo sapiens, UniProt Q16512)
Chain of UniProt Q16512 (whole entry, looked up): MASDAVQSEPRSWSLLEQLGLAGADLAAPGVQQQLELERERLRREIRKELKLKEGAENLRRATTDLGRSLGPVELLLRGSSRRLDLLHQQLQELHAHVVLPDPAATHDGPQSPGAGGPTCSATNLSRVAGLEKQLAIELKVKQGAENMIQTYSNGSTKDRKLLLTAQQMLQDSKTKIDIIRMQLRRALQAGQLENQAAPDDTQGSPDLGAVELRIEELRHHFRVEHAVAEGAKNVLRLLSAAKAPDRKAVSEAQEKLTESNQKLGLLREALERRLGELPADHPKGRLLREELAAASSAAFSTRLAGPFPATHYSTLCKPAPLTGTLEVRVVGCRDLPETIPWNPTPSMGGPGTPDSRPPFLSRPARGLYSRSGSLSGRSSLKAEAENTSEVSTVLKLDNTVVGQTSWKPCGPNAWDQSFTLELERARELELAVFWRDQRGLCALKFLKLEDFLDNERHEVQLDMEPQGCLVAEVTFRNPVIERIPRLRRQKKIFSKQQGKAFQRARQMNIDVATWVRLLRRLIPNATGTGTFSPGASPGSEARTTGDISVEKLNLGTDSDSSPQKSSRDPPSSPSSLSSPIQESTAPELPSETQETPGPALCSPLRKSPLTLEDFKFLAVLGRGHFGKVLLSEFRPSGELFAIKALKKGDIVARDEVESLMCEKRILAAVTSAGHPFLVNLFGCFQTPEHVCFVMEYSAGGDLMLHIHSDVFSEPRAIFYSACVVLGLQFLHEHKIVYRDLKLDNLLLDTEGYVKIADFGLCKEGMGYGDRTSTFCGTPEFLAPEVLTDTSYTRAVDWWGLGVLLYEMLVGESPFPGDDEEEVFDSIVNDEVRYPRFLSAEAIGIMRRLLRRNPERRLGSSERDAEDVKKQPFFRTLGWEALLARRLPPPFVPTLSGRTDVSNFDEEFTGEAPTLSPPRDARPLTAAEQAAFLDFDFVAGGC
BEST2: Bestrophin-2a (BEST2, Homo sapiens, UniProt Q8NFU1)
Chain of UniProt Q8NFU1 (whole entry, looked up): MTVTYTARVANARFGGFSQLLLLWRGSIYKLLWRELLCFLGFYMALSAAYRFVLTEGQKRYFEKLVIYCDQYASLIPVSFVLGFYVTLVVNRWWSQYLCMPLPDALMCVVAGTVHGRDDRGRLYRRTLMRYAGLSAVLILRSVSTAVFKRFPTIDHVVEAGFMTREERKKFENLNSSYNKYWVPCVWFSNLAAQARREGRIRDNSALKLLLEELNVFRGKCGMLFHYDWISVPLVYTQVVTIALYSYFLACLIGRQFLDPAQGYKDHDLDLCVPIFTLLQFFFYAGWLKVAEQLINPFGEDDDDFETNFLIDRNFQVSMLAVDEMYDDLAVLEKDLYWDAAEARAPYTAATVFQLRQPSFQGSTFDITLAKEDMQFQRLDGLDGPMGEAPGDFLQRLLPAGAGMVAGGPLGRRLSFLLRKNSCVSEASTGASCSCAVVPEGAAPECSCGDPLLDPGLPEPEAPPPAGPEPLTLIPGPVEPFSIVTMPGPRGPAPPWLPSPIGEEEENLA
TOP2A: DNA topoisomerase 2-alpha (TOP2A, Homo sapiens, UniProt P11388)
Chain of UniProt P11388 (whole entry, looked up): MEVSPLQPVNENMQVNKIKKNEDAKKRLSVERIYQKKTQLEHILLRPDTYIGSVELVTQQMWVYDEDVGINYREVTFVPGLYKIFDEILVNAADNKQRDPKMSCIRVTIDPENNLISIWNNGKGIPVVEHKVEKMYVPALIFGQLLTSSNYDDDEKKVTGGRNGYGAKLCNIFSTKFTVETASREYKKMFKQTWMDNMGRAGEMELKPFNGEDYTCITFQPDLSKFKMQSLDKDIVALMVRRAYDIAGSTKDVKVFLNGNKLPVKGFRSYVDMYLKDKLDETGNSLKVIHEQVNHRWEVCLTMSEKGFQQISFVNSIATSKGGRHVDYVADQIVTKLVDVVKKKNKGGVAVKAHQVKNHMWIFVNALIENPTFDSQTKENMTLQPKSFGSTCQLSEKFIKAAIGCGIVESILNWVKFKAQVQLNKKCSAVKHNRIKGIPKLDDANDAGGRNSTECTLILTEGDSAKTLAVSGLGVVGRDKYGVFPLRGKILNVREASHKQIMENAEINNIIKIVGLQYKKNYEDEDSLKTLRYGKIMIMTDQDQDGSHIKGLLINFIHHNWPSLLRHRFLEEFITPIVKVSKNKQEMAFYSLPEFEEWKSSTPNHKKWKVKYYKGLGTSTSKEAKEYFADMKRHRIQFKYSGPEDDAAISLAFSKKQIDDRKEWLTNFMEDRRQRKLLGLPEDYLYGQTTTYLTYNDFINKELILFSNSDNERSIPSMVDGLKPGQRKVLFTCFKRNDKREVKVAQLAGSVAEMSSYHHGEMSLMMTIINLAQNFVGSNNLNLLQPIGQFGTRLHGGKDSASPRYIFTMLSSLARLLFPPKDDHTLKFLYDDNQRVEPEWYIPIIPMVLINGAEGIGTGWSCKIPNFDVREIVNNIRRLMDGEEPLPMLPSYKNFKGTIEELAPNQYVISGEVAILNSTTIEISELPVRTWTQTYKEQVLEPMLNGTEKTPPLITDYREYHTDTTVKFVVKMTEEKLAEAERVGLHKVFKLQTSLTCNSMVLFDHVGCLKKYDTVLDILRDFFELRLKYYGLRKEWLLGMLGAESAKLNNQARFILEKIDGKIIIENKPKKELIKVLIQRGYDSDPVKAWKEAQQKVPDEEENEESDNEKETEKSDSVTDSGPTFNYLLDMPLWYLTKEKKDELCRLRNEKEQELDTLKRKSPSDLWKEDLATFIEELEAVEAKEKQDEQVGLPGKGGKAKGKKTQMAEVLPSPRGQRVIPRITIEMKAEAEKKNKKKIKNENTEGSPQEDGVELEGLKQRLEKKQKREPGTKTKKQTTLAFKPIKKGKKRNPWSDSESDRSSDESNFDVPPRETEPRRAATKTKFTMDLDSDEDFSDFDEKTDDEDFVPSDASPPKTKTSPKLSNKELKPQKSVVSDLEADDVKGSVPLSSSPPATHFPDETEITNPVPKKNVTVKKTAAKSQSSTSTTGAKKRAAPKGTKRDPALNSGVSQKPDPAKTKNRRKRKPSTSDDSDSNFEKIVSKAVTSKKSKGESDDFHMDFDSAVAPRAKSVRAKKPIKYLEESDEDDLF
SETDB1 triple tudor domain: Histone-lysine N-methyltransferase SETDB1, triple tudor domain (SETDB1, Homo sapiens, UniProt Q15047)
T1: G-quadruplex RNA (Homo sapiens); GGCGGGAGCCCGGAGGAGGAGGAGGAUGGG
Chain of UniProt O76090 (whole entry, looked up): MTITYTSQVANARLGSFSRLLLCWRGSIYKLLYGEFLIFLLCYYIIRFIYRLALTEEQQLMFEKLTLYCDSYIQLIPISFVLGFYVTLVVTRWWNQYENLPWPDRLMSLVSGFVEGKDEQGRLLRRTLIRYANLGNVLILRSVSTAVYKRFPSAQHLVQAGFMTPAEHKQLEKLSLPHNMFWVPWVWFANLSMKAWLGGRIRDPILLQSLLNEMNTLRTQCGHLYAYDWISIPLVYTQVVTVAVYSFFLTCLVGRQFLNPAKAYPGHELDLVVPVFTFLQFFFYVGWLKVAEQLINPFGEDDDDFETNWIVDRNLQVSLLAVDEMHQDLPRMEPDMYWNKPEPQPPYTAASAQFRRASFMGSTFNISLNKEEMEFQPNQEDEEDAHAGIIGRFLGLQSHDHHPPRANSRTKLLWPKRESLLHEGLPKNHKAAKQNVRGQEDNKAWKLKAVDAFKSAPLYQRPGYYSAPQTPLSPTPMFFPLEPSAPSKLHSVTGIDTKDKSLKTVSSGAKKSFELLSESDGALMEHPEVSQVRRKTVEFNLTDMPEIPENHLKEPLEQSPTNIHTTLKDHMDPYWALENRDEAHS
Chain of UniProt P51575 (whole entry, unmodified, looked up): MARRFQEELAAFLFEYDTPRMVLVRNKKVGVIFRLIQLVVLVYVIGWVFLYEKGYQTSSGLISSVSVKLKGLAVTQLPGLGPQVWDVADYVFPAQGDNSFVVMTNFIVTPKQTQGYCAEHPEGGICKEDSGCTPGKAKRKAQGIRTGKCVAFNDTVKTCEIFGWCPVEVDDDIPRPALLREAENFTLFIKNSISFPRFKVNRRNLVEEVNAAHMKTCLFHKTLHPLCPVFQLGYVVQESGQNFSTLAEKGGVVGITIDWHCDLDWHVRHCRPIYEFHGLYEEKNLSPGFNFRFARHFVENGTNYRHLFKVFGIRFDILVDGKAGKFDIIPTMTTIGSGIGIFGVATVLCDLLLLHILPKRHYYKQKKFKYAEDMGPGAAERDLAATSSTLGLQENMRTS
Chain of UniProt Q64663 (whole entry, unmodified, looked up): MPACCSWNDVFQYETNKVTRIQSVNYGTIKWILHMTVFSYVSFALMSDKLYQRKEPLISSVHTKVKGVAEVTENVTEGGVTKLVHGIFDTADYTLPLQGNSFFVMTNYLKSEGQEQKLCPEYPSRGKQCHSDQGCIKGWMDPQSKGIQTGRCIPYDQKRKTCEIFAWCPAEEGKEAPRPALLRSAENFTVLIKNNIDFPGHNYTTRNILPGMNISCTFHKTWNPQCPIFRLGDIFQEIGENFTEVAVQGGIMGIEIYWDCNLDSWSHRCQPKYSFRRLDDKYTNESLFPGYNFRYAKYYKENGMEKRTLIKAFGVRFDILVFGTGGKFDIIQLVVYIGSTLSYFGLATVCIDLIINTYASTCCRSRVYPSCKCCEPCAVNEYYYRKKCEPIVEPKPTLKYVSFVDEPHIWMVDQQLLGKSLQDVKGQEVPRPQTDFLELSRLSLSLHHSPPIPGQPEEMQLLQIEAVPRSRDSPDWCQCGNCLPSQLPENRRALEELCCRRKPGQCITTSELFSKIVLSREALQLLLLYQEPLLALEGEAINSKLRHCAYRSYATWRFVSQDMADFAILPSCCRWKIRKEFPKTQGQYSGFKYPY
Chain of UniProt Q8IVV7 (whole entry, looked up): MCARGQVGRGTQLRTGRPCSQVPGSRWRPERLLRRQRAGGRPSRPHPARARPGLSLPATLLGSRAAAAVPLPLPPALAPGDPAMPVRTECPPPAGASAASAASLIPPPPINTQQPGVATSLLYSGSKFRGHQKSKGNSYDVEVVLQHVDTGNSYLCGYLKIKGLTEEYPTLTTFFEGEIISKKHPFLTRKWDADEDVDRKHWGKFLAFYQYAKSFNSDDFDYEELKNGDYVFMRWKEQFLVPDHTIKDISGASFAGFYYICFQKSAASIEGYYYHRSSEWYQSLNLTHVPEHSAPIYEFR
Chain of UniProt P0ABQ4 (whole entry, looked up): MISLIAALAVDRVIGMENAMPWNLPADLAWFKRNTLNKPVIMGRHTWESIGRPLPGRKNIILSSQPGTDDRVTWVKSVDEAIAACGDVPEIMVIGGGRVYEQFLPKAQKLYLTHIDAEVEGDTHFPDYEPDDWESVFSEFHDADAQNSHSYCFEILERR

COc1cc(N2CCC(N3CCN(C)CC3)CC2)ccc1Nc1ncc(Cl)c(Nc2ccccc2P(C)(C)=O)n1  NanoBRET ratio (GID4/ALK (Homo sapiens, UniProt Q8IVV7+Q9UM73); ternary complex formation; HEK293T; 250 nM, 6 h; baseline: normalised ratio): 1.11 and 0.978 and 0.907
NS(=O)(=O)c1ccc(Nc2nc(OCC3CCCCC3)c3[nH]cnc3n2)cc1  Hill slope (PKN1; inhibitor): -0.577
Nc1ncnc2c1ncn2[C@@H]1O[C@H](COP(=O)(O)OP(=O)(O)OP(=O)(O)O)[C@@H](O)[C@H]1O  normalized current (P2X purinoceptor 7 (P2rx7, Rattus norvegicus, UniProt Q64663); ion current, agonist, two-electrode voltage clamp; Xenopus laevis oocytes; 2 µM; baseline: highest concentration response): 0
Oc1ccccc1-c1n[nH]cc1-c1ccnc2ccccc12  log2 fold change (Mitogen-activated protein kinase MKC1 (MKC1, Candida albicans, UniProt P43068); kinase binding, MIB/MS competition; Candida albicans lysate; 1 µM; baseline: DMSO, negative = stronger binding): 0
O=C(O)c1ccc(O)cc1  current density (BEST2; whole-cell patch clamp; HEK293 transiently expressing channel; concentration not given, membrane potential -60 mV): -67.1 pA/pF and -148 pA/pF and -79.3 pA/pF and -150 pA/pF and -160 pA/pF and -98.8 pA/pF and -194 pA/pF
CCCCCCCC/C=C\CCCCCCCC(=O)NCCc1ccc(O)c(O)c1  maximal open probability (Trpv1 (Mus musculus, UniProt Q704Y3); ion current, agonist, whole-cell patch clamp; HEK293; baseline: 3 mM 2-APB current): 0.68 ± 0.08
CC(C(=O)Nc1c(F)cccc1F)N1CCN(c2ccccc2)CC1 (centres unmarked)  peak Ca2+ influx (Short transient receptor potential channel 7 (Mus musculus, UniProt Q9WVC5); ion current, GCaMP6 calcium imaging; HEK293 transfected; 20 µM, unit not given, with: 50 µM OAG; baseline: control): 1.04 ± 0.03
Nc1ncnc2c1ncn2[C@@H]1O[C@H](COP(=O)(O)CP(=O)(O)OP(=O)(O)O)[C@@H](O)[C@H]1O  specific binding (P2X purinoceptor 1 (P2RX1, Homo sapiens, UniProt P51575, E122A); saturation binding; 103 nM): 764 corrected cpm and 1200 corrected cpm and 776 corrected cpm
CC(C)(Oc1ccc(CCNC(=O)c2ccc(Cl)cc2)cc1)C(=O)O  specificity ratio (PPARG (Homo sapiens, UniProt P37231); reporter gene, agonist, β-lactamase reporter; HEK293-H cells; nominal concentration; baseline: cytotoxicity IC10 over EC10): 172
O=C1C(SCCO)=C(SCCO)C(=O)c2ccccc21  inhibition after dialysis (TGM2 (Homo sapiens, UniProt P21980); enzyme activity, inhibitor; concentration not given, reversibility, without calcium): > 90%
Cc1c(COc2ccc(CN3CCCCC3C(=O)NCCCNC(=O)CN(C)CCCC34CCC(c5ccccc53)c3ccccc34)cc2Br)cccc1-c1ccccc1 (centres unmarked)  degradation (CD274 (Homo sapiens, UniProt Q9NZQ7); degrader, western blot; HL-60; 1 µM): 10.3 ± 3.5%
CC(=O)Nc1ccc(O)cc1  chemical shift change (BRD4 (Homo sapiens, UniProt O60885); 19F NMR, refers to: tyrosine 65; 48 µM; baseline: free protein): -0.01 ppm
CC(C)[C@H](NC(=O)c1cc(-c2cnn3cc(-c4ccc(OCCN5CCCCC5)cc4)cnc23)cs1)C(F)(F)F  relative inhibition (PLK3 (human); radiometric kinase; 15 nM; baseline: PLK3 over ULK1): 0.0341
CCC(C)(NCCc1cccc(Cl)c1)c1cccc(NC2=CC(=O)N(C3CCC(=O)NC3=O)C2=O)c1 (centres unmarked)  Dmax (Cereblon/Ikaros (Homo sapiens, UniProt Q13422+Q96SW2); protein degradation, degrader, HiBiT luminescence; Jurkat): 71%
O=C(COP(=O)(O)O)[C@@H](O)[C@H](O)[C@H](O)COP(=O)(O)O  thermal stability ratio (GLUD1 (Homo sapiens, UniProt P00367); thermal proteome profiling; HepG2 cell lysate; concentration not given, 57 over 37 °C, mean; baseline: compound over control): 4.09
CN1CCN(c2cc(-c3ccncc3)c(-c3ccc4ccccc4c3)nn2)CC1  activation (VIPR1 (Homo sapiens, UniProt P32241); agonist, FLIPR; 12.5 µM): -1.2%
O=S(=O)(O)C1CCNCC1  normalised MST signal (SLC6A6 (Homo sapiens, UniProt P31641, Y138A); binding, microscale thermophoresis; 31.3 µM, room temperature, with: 50 nM labelled protein; higher = more binding): -0.0309
O=c1nc(SCc2cc(F)cc(C(F)(F)F)c2)nc(SCc2ccc3nc(OCCN4CCOCC4)ccc3c2)[nH]1  mean decatenated DNA (TOP2A; decatenation; 31.25 µM): 1.1%
C[C@H](Nc1nc(N[C@H](C)C(F)(F)F)nc(-c2cccc(Cl)n2)n1)C(F)(F)F  maximal inhibition (IDH1 (Homo sapiens, UniProt O75874, R132H); enzyme activity; heterodimer): 90%
Cc1ccc2c(c1)sc(-c1ccc(N(C)C)cc1)[n+]2C  binding (T1, G-quadruplex RNA (Homo sapiens); ThT fluorescence; potassium phosphate 100 mM, reduced with Li+): binds
CN(Cc1cnc2nc(N)nc(N)c2n1)c1ccc(C(=O)N[C@@H](CCC(=O)O)C(=O)O)cc1  uptake (Proton-coupled folate transporter (Homo sapiens, UniProt Q96NT5); transport; transfected cells; pH 5.5, 37 °C): ~85%
O=c1c(OS(=O)(=O)[O-])c(-c2ccc(OS(=O)(=O)[O-])c(OS(=O)(=O)[O-])c2)oc2cc(OS(=O)(=O)[O-])cc(OCc3ccc(COc4cc(OS(=O)(=O)[O-])cc5oc(-c6ccc(OS(=O)(=O)[O-])c(OS(=O)(=O)[O-])c6)c(OS(=O)(=O)[O-])c(=O)c45)cc3)c12.[Na+].[Na+].[Na+].[Na+].[Na+].[Na+].[Na+].[Na+]  Hill slope (Neutrophil elastase (ELANE, Homo sapiens, UniProt P08246); enzyme activity, inhibitor; with: chromogenic substrate): 1.2
Cc1nc(CSc2nc(SCc3ccc(C(F)(F)F)cc3)nc(=O)[nH]2)cs1  decatenated DNA (TOP2A; decatenation; 31.25 µM, replicate 1): 81.6%
CC1(C)CC2(C)OC(=O)NC2(C)c2ccccc21 (centres unmarked)  log fold enrichment (SETDB1 triple tudor domain; binding, affinity selection mass spectrometry; baseline: other proteins in batch): -0.146
O=C(O)c1ccc(Nc2ncc3c(n2)-c2ccc(Cl)cc2C(c2c(F)cccc2F)=NC3)cc1  remaining activity (Lyn(m); kinase activity; 1 µM): 52%
Nc1nc(N)c2c(n1)CCCC2  koff from excited state (folA (Escherichia coli, UniProt P0ABQ4); conformational gating model): 179 s⁻¹
Nc1ccc(C(=O)O)cc1  current density (BEST1 (Homo sapiens, UniProt O76090); whole-cell patch clamp; HEK293 transiently expressing channel; concentration not given, membrane potential -40 mV): -39.9 pA/pF and -32.2 pA/pF and -37.1 pA/pF and -28.6 pA/pF and -18.9 pA/pF and -20.5 pA/pF and -19.9 pA/pF
COc1cc(/C=C/c2ccc(O)cc2)cc(OC)c1  ∆G (O-methyltransferase (Sorghum bicolor, UniProt A0A1B6PFV1); ITC; one set of sites, with: SFG): -7.2 kcal/mol
O=c1nc(SCc2cc(F)cc(C(F)(F)F)c2)nc(SCc2nc3ccccc3[nH]2)[nH]1  decatenated DNA (TOP2A; decatenation; 15.6 µM, replicate 1): 96.9%
O=C(O)C1=CCNCC1  current density (BEST2; whole-cell patch clamp; HEK293 transiently expressing channel; concentration not given, membrane potential 60 mV): 158 pA/pF and 127 pA/pF and 126 pA/pF and 38.2 pA/pF and 239 pA/pF
O=c1nc(SCc2cc(F)cc(C(F)(F)F)c2)nc(SCc2ccc3nc(Cl)ccc3c2)[nH]1  ATP hydrolysis rate (TOP2A; ATPase activity; 31.25 µM, with: ATP 0.075 mM): 0.425 µM/min and 0.581 µM/min
C=C1C(=O)O[C@@H]2C[C@@]3(C)CCCC(=C)[C@@H]3C[C@H]12  activation (RARA (Homo sapiens, UniProt P10276); reporter gene, Gal4 hybrid reporter; 10 µM; baseline: vehicle): 0.89 fold
Nc1ncnc2c1ncn2[C@@H]1O[C@H](CO[P@](=O)(O)O[P@](=O)(O)O[P@@](=O)(O)S)[C@@H](O)[C@H]1O  ΔH (GUK1 (Homo sapiens, UniProt Q16774); ITC; molar ratio 2.83): -0.293 kcal/mol
O=c1nc(SCc2cc(F)cc(C(F)(F)F)c2)nc(SCc2csc3ccc(Cl)cc23)[nH]1  mean relaxed DNA (TOP2A; DNA relaxation; 31.25 µM): 3.4%
Nc1nc2c(ncn2[C@H]2C[C@@H]3OP(=O)(O)OC[C@H]3O2)c(=O)[nH]1  relative binding affinity (anti-cGMP antibody; antibody binding, competitive cGMP EIA; concentration not given, acetylated samples; baseline: EC50 cGMP over EC50 cpd, higher = stronger binding): 0.0521
C[C@H](CCC(C)(C)O)[C@H]1CC[C@H]2[C@@H]3CC=C4C[C@@](C)(O)CC[C@]4(C)[C@H]3CC[C@]12C  current response (Glutamate NMDA receptor; GRIN1/GRIN2B (GRIN1/GRIN2B, Homo sapiens, UniProt Q05586+Q13224, L551A); positive allosteric modulator, two-electrode voltage clamp; Xenopus oocytes expressing GluN2B-L551A; 10 µM, 0.02% cremophor, with: 100 µM glutamate and glycine; baseline: without compound): 313 ± 29%
O=C(O)[C@@H]1CCCN1c1ncnc2[nH]cnc12 (racemic)  log fold enrichment (SETDB1 triple tudor domain; binding, affinity selection mass spectrometry; baseline: other proteins in batch): -0.00111
O=c1nc(SCc2cc(F)cc(C(F)(F)F)c2)nc(SCc2ccc3ccccc3n2)[nH]1  decatenated DNA (TOP2A; decatenation; 31.25 µM, replicate 2): 0.32%
CC[C@@H]1[C@H](F)C(=O)N[C@@H]1COc1nccc2cc(C(N)=O)c(OC)cc12  inhibition (PKN1; ATP-site probe binding, ActivX profiling; THP-1 cell lysate; 0.2 mM, Lys1 site): 5%
CC1(C)O[C@@H]2[C@@H](CO[C@@]3(COS(N)(=O)=O)OC(C)(C)O[C@@H]23)O1  intrinsic binding TΔS (CA4 (Homo sapiens, UniProt P22748); ITC; concentration not given, 25 °C): 5.81 kcal/mol
[Zn+2]  remaining current (Otop1 (Mus musculus, UniProt Q80VM9); acid-evoked current, inhibitor, whole-cell patch-clamp; HEK293T; 0.1 mM, pH 5.5, unit not given; baseline: current before compound): 0.445

For quick reference, copied from above:
Cc1c(COc2ccc(CN3CCCCC3C(=O)NCCCNC(=O)CN(C)CCCC34CCC(c5ccccc53)c3ccccc34)cc2Br)cccc1-c1ccccc1 (centres unmarked)  degradation (CD274 (Homo sapiens, UniProt Q9NZQ7); degrader, western blot; HL-60; 1 µM): 10.3 ± 3.5%
CC(=O)Nc1ccc(O)cc1  chemical shift change (BRD4 (Homo sapiens, UniProt O60885); 19F NMR, refers to: tyrosine 65; 48 µM; baseline: free protein): -0.01 ppm
CC(C)[C@H](NC(=O)c1cc(-c2cnn3cc(-c4ccc(OCCN5CCCCC5)cc4)cnc23)cs1)C(F)(F)F  relative inhibition (PLK3 (human); radiometric kinase; 15 nM; baseline: PLK3 over ULK1): 0.0341
CCC(C)(NCCc1cccc(Cl)c1)c1cccc(NC2=CC(=O)N(C3CCC(=O)NC3=O)C2=O)c1 (centres unmarked)  Dmax (Cereblon/Ikaros (Homo sapiens, UniProt Q13422+Q96SW2); protein degradation, degrader, HiBiT luminescence; Jurkat): 71%
O=C(COP(=O)(O)O)[C@@H](O)[C@H](O)[C@H](O)COP(=O)(O)O  thermal stability ratio (GLUD1 (Homo sapiens, UniProt P00367); thermal proteome profiling; HepG2 cell lysate; concentration not given, 57 over 37 °C, mean; baseline: compound over control): 4.09
CN1CCN(c2cc(-c3ccncc3)c(-c3ccc4ccccc4c3)nn2)CC1  activation (VIPR1 (Homo sapiens, UniProt P32241); agonist, FLIPR; 12.5 µM): -1.2%
O=S(=O)(O)C1CCNCC1  normalised MST signal (SLC6A6 (Homo sapiens, UniProt P31641, Y138A); binding, microscale thermophoresis; 31.3 µM, room temperature, with: 50 nM labelled protein; higher = more binding): -0.0309
